Experimental data pooled from the literature.
Lines come from different studies, so protocols differ. ± gives the spread as reported.

C(=NNC1=NCc2ccccc2-c2c1[nH]c1ccccc21)c1ccccn1 has a pKa1 of 2.51 ± 0.01 (UV-vis titration; DMSO-water 30 to 70% w/w; 298 K, ionic strength 0.10 M KCl).
COc1cc(-c2nc3ccccc3s2)cc(CN2Cc3cccc(n3)CNCc3cccc(n3)C2)c1O gave a pKa1 of 5.14 (UV-vis spectrophotometric titration, measured: H4L3+/H3L2+ equilibrium; MeOH/water with NaCl; 50 µM, room temperature, NaCl 0.1 M, MeOH ≤20% v/v).
COc1cc(-c2nc3ccccc3s2)cc(CN2CCN(CC(=O)OC(C)C)CCN(CC(=O)OC(C)C)CC2)c1O has a pKa1 of 5.09 (UV-Vis pH titration; 25 °C, ionic strength 0.1 M NaCl).
COc1cc(-c2nc3ccccc3s2)cc(CN2Cc3cccc(n3)CN(C)Cc3cccc(n3)C2)c1O has a pKa1 of 4.8 (UV-vis spectrophotometric titration, measured: H4L3+/H3L2+ equilibrium; MeOH/water with NaCl; 50 µM, room temperature, NaCl 0.1 M, MeOH ≤20% v/v).
O=C(O)[C@@H]1C[C@@H](O)CN1C(=O)[C@@H]1CCCN1 gave a pKa1 of < 2 (potentiometric titration; water; 37 °C, 0.15 mol/dm3 NaCl).
COc1cc(-c2nc3ccccc3s2)cc(CN2CCN(CC(=O)O)CCN(CC(=O)O)CC2)c1O gave a pKa1 of 3.83 (UV-Vis pH titration; 25 °C, ionic strength 0.1 M NaCl).
With COc1cc(-c2nc3ccccc3s2)cc(CN(C)Cc2ccccn2)c1O the pKa1 was 1.94 (methanol-water; 50 µM, 0.1 M NaCl).
The pKa1 of CCOC(=O)CN1CCN(CC(=O)OCC)CCN(Cc2cc(-c3nc4ccccc4s3)cc(OC)c2O)CC1 is reported as 4.78 (UV-Vis pH titration; 25 °C, ionic strength 0.1 M NaCl).
With COc1cc(-c2nc3ccccc3s2)cc(CN2CCN(C)CCN(C)CC2)c1O the pKa1 was 3.78 (UV-vis spectrophotometric titration, measured: H4L3+/H3L2+ equilibrium; MeOH/water with NaCl; 50 µM, room temperature, NaCl 0.1 M, MeOH ≤20% v/v).
With NCC(=O)N1CCC[C@H]1C(=O)N1C[C@H](O)C[C@H]1C(=O)O the pKa1 was 2.42 (potentiometric titration; water; 25 °C, 0.15 mol/dm3 NaCl).

Repeated from above:
COc1cc(-c2nc3ccccc3s2)cc(CN2CCN(CC(=O)O)CCN(CC(=O)O)CC2)c1O gave a pKa1 of 3.83 (UV-Vis pH titration; 25 °C, ionic strength 0.1 M NaCl).
